Published values of several laboratories.
Lines come from different studies, so protocols differ. ± marks the error that the study gave.
Complement C3: Complement C3 (Homo sapiens, UniProt P01024)
Histone chaperone ASF1A: Histone chaperone ASF1A (Homo sapiens, UniProt Q9Y294)
lecA: PA-I galactophilic lectin (lecA, Pseudomonas aeruginosa, UniProt Q05097)

| SMILES | target | assay | test system | conditions | Kd |
| --- | --- | --- | --- | --- | --- |
| CC(=O)N[C@H](C(=O)N[C@H](C(=O)N[C@@H](CCCNC(=N)N)C(=O)N[C@@H](CC(N)=O)C(=O)N[C@@H](CC(=O)O)C(=O)N[C@H](C(=O)N1CCC[C@@H]1C(=O)N1CCC[C@H]1C(=O)N[C@@H](CC(=O)O)C(=O)N[C@@H](CO)C(=O)N[C@@H](CC(C)C)C(=O)N[C@@H](CC(C)C)C(=O)N[C@H](C(=O)N[C@@H](Cc1ccccc1)C(N)=O)C(C)C)C(C)C)[C@@H](C)O)C(C)C | Catenin beta-1 (CTNNB1, Homo sapiens, UniProt P35222) | binding | – | – | ~2 µM |
| CCC(C)N(C)C(=O)c1nc(-c2cccc(C(F)(F)[18F])c2)c2ccccc2n1 (stereo not shown) | Translocator protein (Tspo, Mus musculus, UniProt P50637) | binding | RAW264.7 | 2 h, 37 °C | ~0.0133 µM |
| CC(=O)N[C@@H](Cc1c[nH]c2ccccc12)C(=O)N[C@H]1CSSC[C@@H](C(=O)N[C@H](C(N)=O)[C@@H](C)O)NC(=O)[C@H](CCCNC(=N)N)NC(=O)[C@H](Cc2c[nH]cn2)NC(=O)[C@H](C)NC(=O)CNC(=O)[C@H](Cc2c[nH]c3ccccc23)NC(=O)[C@H](CC(=O)O)NC(=O)[C@H](CCC(N)=O)NC(=O)[C@H](Cc2c[nH]c3ccccc23)NC(=O)[C@H](C(C)C)NC1=O | Complement C3 | surface plasmon resonance | – | 25 °C, two-state reaction model | 0.5 µM |
| CC(C)=CCC[C@](C)(O)[C@H]1CC[C@]2(C)[C@@H]1[C@H](O)C[C@@H]1[C@@]3(C)CC[C@H](O)C(C)(C)[C@@H]3CC[C@]12C | 14-3-3 protein zeta/delta (YWHAZ, Homo sapiens, UniProt P63104, R56A) | biolayer interferometry | – | R56A mutant | 2350 ± 0.11 µM |
| Cc1cc(C)cc(COc2cc3c(cc2OCc2cc(C)cc(C)c2)C2CC(O)CC(C)N2CC3)c1 (stereo not shown) | Rab GDP dissociation inhibitor beta (Homo sapiens, UniProt P50395) | binding, BLI | – | – | 46 µM |
| CC[C@H](C)[C@H](NC(=O)[C@H](CCCNC(=N)N)NC(=O)NC[C@H](CCC(N)=O)NC(=O)NC[C@H](CCc1ccccc1)NC(=O)NC[C@H](CCCNC(=N)N)NC(=O)NC[C@H](Cc1ccc2ccccc2c1)NC(=O)[C@H](CCCCN)NC(=O)[C@H](CCC(=O)O)NC(C)=O)C(=O)N[C@@H](C)C(N)=O | Histone chaperone ASF1A | binding, ITC | – | pH 7.5 | 15.4 µM |
| O=C(COCCCCc1ccccc1)N[C@@H](Cc1cn(CCNC(=O)c2ccc(S[C@@H]3O[C@H](CO)[C@H](O)[C@H](O)[C@H]3O)cc2)nn1)C(=O)NCCO | lecA | binding, SPR | – | – | 6.7 µM |
| CC1(C)[C@@H](O)CC[C@]2(C)[C@H]3C(=O)C=C4[C@@H]5C[C@@](C)(C(=O)NCCCN)CC[C@]5(C)CC[C@@]4(C)[C@]3(C)CC[C@@H]12 | Serine hydroxymethyltransferase, mitochondrial (SHMT2, Homo sapiens, UniProt P34897) | – | – | – | 2.14 µM |
| C[C@H](N)C(=O)N[C@@H](CCCNC(=N)N)C(=O)N[C@H](C(=O)N[C@@H](CCCCN(C)C)C(=O)N[C@@H](CCC(N)=O)C(=O)N[C@H](C(=O)N[C@@H](C)C(=O)N[C@@H](CCCNC(=N)N)C(=O)N[C@@H](CCCCN)C(=O)N[C@@H](CO)C(=O)N[C@H](C(=O)NCC(=O)NCC(=O)N[C@@H](CCCCN)C(=O)N[C@@H](C)C(=O)O)[C@@H](C)O)[C@@H](C)O)[C@@H](C)O | Histone-lysine N-methyltransferase 2A, PHD3-bromodomain cassette (KMT2A, Homo sapiens, UniProt Q03164, del1666-1702) | binding, isothermal titration calorimetry | – | pH 7.5, 25 °C, coexpressed protein complex, together with: H3K4me peptide | 6.9 µM |
| C=CCCO[C@@H]1C[C@@H](C(=O)N[C@@H](CCCNC(=N)N)C(=O)N[C@@H](CCCNC(=N)N)C(=O)N[C@@H](CCCNC(=N)N)C(N)=O)N(C(=O)[C@@H]2CCCN2C(=O)[C@@H](NC(=O)[C@@H]2C[C@H](OCC=C)CN2C(=O)[C@@H]2CCCN2C(=O)[C@@H]2CCCN2C(=O)[C@@H](NC(C)=O)C(C)C)C(C)C)C1 | Growth factor receptor-bound protein 2, N-terminal SH3 domain (GRB2, Homo sapiens, UniProt P62993) | binding, tryptophan fluorescence | PBS | 21 °C | 12.2 ± 0.4 µM |
| CC(C)C[C@@H](N)C(=O)N[C@H](CC(=O)O)C(=O)N[C@@H](C(=O)N[C@H](Cc1ccccc1)C(=O)N[C@H](CC(C)C)C(=O)N[C@H](Cc1ccc(O)cc1)C(=O)N[C@H](CO)C(=O)N[C@H](CCC(=O)O)C(=O)O)C(C)C | Signal transducer CD24 (CD24, Homo sapiens, UniProt P25063) | binding, microscale thermophoresis | PBS, 0.05% Tween20, 5% DMSO | – | 9.22 ± 6.47 µM |
| CC[C@H](C)[C@@H]1NC(=O)[C@@H]2CCCN2C(=O)[C@H](Cc2c[nH]c3ccccc23)NC(=O)[C@H](CO)NC(=O)[C@H](Cc2c[nH]c3ccccc23)NC(=O)[C@H](CC(N)=O)NC(=O)[C@H](CCCCN)NC(=O)[C@H](CCSC)NC(=O)[C@@H]2CSCCC(=O)N3CN(CN(C3)C(=O)CCSC[C@H](NC(=O)[C@H](C)N)C(=O)N3CCC[C@H]3C(=O)N[C@@H](Cc3ccccc3)C(=O)NCC(=O)N2)C(=O)CCSC[C@@H](C(=O)N[C@H](C(=O)N[C@@H](CC(N)=O)C(=O)N[C@@H](CCCCN)C(=O)N(C)CC(=O)N(C)CC(=O)N(C)CC(=O)N(C)CC(=O)N(C)CC(=O)N(C)CC(=O)N[C@@H](CCCCNC(=O)c2ccc(C(=O)O)c(-c3c4ccc(=O)cc-4oc4cc(O)ccc34)c2)C(N)=O)[C@@H](C)O)NC(=O)[C@H](Cc2c[nH]c3ccccc23)NC1=O | Nectin-4 extracellular domain (cynomolgus monkey) | binding, fluorescence polarization | – | – | 0.0492 µM |
| CC1=CC(C)(C)Nc2c(C(=O)O)cc(F)cc21 | E3 ubiquitin-protein ligase CBL-C (Homo sapiens, UniProt Q9ULV8) | binding, NMR | – | – | 840 µM |
| N=C(N)NCCC[C@H](NC(=O)[C@@H]1CCCN1C(=O)[C@H](CC(N)=O)NC(=O)[C@H](CCCNC(=N)N)NC(=O)[C@@H]1CCCN1C(=O)[C@H](CCCCN)NC(=O)[C@H](CCCCN)NC(=O)[C@H](CCC(N)=O)NC(=O)[C@H](CC(=O)O)NC(=O)[C@@H](N)Cc1c[nH]c2ccccc12)C(=O)O | Neuropilin-1 (NRP1, Homo sapiens, UniProt O14786) | binding, ITC | – | pH 7.4 | 10 µM |
| C[n+]1cc(NC(=O)c2ccc3ccc4ccc(C(=O)Nc5cc6ccccc6[n+](C)c5)nc4c3n2)cc2ccccc21 | telomeric G4 DNA hybrid-2 | binding, fluorescence titration | 100 mM KCl buffer | pH 7.2, together with: labelled G4 DNA 2 nM | 0.0031 ± 0.0002 µM |
| CC(=O)N[C@@H](Cc1c[nH]c2ccccc12)C(=O)N[C@H]1CSSC[C@@H](C(=O)N[C@@H](Cc2c[nH]c3ccccc23)C(N)=O)NC(=O)[C@H](CCCNC(=N)N)NC(=O)[C@H](Cc2c[nH]cn2)NC(=O)[C@H](C)NC(=O)CNC(=O)[C@H](Cc2c[nH]c3ccccc23)NC(=O)[C@H](CC(=O)O)NC(=O)[C@H](CCC(N)=O)NC(=O)[C@H](Cc2c[nH]c3ccccc23)NC(=O)[C@H](C(C)C)NC1=O | Complement C3 | binding, SPR | – | – | 0.38 µM |
| OC[C@H]1O[C@@H](Oc2ccc(OCc3cn([C@H]4[C@H](O)[C@@H](O)[C@H](c5cn([C@H]6[C@H](O)[C@@H](O)[C@H](n7cc(COc8ccc(O[C@@H]9O[C@H](CO)[C@H](O)[C@H](O)[C@H]9O)cc8)nn7)O[C@@H]6CO)nn5)O[C@@H]4CO)nn3)cc2)[C@H](O)[C@@H](O)[C@H]1O | lecA | binding, ITC | – | pH 7.5 | 0.094 µM |
| CC[C@H](C)[C@H](NC(C)=O)C(=O)N[C@H]1CSSC[C@@H](C(=O)N[C@H](C(N)=O)[C@@H](C)O)NC(=O)[C@H](CCCNC(=N)N)NC(=O)[C@H](Cc2c[nH]cn2)NC(=O)[C@H](C)NC(=O)CNC(=O)[C@H](Cc2c[nH]c3ccccc23)NC(=O)[C@H](CC(=O)O)NC(=O)[C@H](CCC(N)=O)NC(=O)[C@H](Cc2ccc(OC)cc2)NC(=O)[C@H](C(C)C)NC1=O | Complement C3 | binding, ITC | – | pH 7.4 | 0.115 µM |
| CCOC(=O)C1=CN([C@@H]2O[C@H](CO)[C@@H](O)[C@H]2O)C=CC1 | NAD-dependent protein deacylase sirtuin-5, mitochondrial (SIRT5, Homo sapiens, UniProt Q9NXA8) | binding, MST | – | – | 6.1 µM |
| CC[C@H](C)[C@H](NC(=O)[C@H](CCCNC(=N)N)NC(=O)NC[C@H](CCC(N)=O)NC(=O)NC[C@H](CC(C)C)NC(=O)NC[C@H](CCCNC(=N)N)NC(=O)NC[C@H](CCc1ccccc1)NC(=O)[C@H](CCCCN)NC(=O)[C@H](CCC(=O)O)NC(C)=O)C(=O)N[C@@H](C)C(N)=O | Histone chaperone ASF1A | binding, ITC | – | pH 7.5 | 4.6 µM |
| C[n+]1cc2cc3cc(ccc31)NC(=O)CCCCC(=O)Nc1ccc3c(c1)cc(c[n+]3C)C(=O)NCc1cccc(c1)CNC2=O | cKIT2 G-quadruplex DNA | microscale thermophoresis | – | – | 5.11 ± 0.96 µM |
| CC(C)C[C@H](NC(=O)[C@H](CCCNC(=N)N)NC(=O)[C@@H](NC(=O)[C@H](CC(=O)O)NC(=O)[C@@H](N)CSC1CC(=O)N(c2ccc3c(c2)C(=O)OC32c3ccc(O)cc3Oc3cc(O)ccc32)C1=O)[C@@H](C)O)C(=O)O (stereo partly shown) | Na(+)/H(+) exchange regulatory cofactor NHE-RF1, PDZ1 domain (NHERF1, Homo sapiens, UniProt O14745) | binding to PDZ1 domain, fluorescence polarization | – | 24 °C | 0.949 ± 0.089 µM |
| O=C(COCCCc1ccccc1)N[C@@H](Cc1cn(CCNC(=O)c2ccc(S[C@@H]3O[C@H](CO)[C@H](O)[C@H](O)[C@H]3O)cc2)nn1)C(=O)NCCO | lecA | binding, SPR | – | – | 7.2 µM |
| Cc1cccc2c1N(C(=O)n1ccnn1)CC2 | KAI2 (Arabidopsis thaliana, UniProt Q9SZU7, Y124F) | binding, ITC | – | – | no binding |
| O=C(CCc1ccc2n1[B-](F)(F)[N+]1=C(c3ccc[nH]3)C=CC1=C2)NCCCn1cc([C@H]2CN(Cc3ccccn3)C(=O)[C@@H]3CCC[C@H]2N3S(=O)(=O)c2cc(Cl)cc(Cl)c2)nn1 | Peptidyl-prolyl cis-trans isomerase FKBP5 (FKBP5, Homo sapiens, UniProt Q13451) | binding, FP | – | – | 0.228 µM |
| CC(C)C[C@H](NC(=O)[C@H](CO)NC(=O)[C@@H](N)Cc1c[nH]c2ccccc12)C(=O)N[C@@H](CCC(=O)O)C(=O)N[C@H](C(=O)N[C@H](C(=O)N[C@@H](CCC(=O)O)C(=O)N[C@@H](C)C(=O)N[C@@H](CC(=O)O)C(=O)N[C@H](C(=O)O)[C@@H](C)O)[C@@H](C)OP(=O)(O)O)C(C)C | E3 ubiquitin-protein ligase pellino homolog 2 (PELI2, Homo sapiens, UniProt Q9HAT8) | – | – | – | > 100 µM |
| O=C(Cc1ccccc1O)N[C@@H](Cc1cn(CCNC(=O)c2ccc(S[C@@H]3O[C@H](CO)[C@H](O)[C@H](O)[C@H]3O)cc2)nn1)C(=O)NCCO | lecA | binding, SPR | – | – | 9.8 µM |
| O=C1c2sc(-c3ccc(N4CCC(CO)CC4)nc3F)nc2CCN1c1cccnc1 | TAR DNA-binding protein 43, aggregated (TARDBP, Homo sapiens, UniProt Q13148) | radioligand binding | FTLD-TDP type B brain homogenate | – | 0.025 ± 0.018 µM |

Repeated from above:
| SMILES | target | assay | test system | conditions | Kd |
| --- | --- | --- | --- | --- | --- |
| CC1(C)[C@@H](O)CC[C@]2(C)[C@H]3C(=O)C=C4[C@@H]5C[C@@](C)(C(=O)NCCCN)CC[C@]5(C)CC[C@@]4(C)[C@]3(C)CC[C@@H]12 | Serine hydroxymethyltransferase, mitochondrial (SHMT2, Homo sapiens, UniProt P34897) | – | – | – | 2.14 µM |
| C[C@H](N)C(=O)N[C@@H](CCCNC(=N)N)C(=O)N[C@H](C(=O)N[C@@H](CCCCN(C)C)C(=O)N[C@@H](CCC(N)=O)C(=O)N[C@H](C(=O)N[C@@H](C)C(=O)N[C@@H](CCCNC(=N)N)C(=O)N[C@@H](CCCCN)C(=O)N[C@@H](CO)C(=O)N[C@H](C(=O)NCC(=O)NCC(=O)N[C@@H](CCCCN)C(=O)N[C@@H](C)C(=O)O)[C@@H](C)O)[C@@H](C)O)[C@@H](C)O | Histone-lysine N-methyltransferase 2A, PHD3-bromodomain cassette (KMT2A, Homo sapiens, UniProt Q03164, del1666-1702) | binding, isothermal titration calorimetry | – | pH 7.5, 25 °C, coexpressed protein complex, together with: H3K4me peptide | 6.9 µM |
